Assay results from different studies.
Lines come from different studies, so protocols differ. Values joined by “and” are separate records of one study, mostly repeats; a detail may differ. ± marks the error that the study gave.
STUB1: E3 ubiquitin-protein ligase CHIP (STUB1, Homo sapiens, UniProt Q9UNE7)
Sequence of UniProt Q9UNE7 (whole entry, looked up): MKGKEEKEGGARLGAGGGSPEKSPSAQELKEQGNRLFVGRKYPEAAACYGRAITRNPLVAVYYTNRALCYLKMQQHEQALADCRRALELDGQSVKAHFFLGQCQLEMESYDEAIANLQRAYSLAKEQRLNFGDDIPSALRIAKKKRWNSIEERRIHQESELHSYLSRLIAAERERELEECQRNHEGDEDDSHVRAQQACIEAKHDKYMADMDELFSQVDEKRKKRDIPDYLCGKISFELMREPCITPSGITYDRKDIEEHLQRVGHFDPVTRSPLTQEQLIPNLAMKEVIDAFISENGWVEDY
HTR2A: 5-hydroxytryptamine receptor 2A (HTR2A, Homo sapiens, UniProt P28223)
Sequence of UniProt P28223 (whole entry, looked up): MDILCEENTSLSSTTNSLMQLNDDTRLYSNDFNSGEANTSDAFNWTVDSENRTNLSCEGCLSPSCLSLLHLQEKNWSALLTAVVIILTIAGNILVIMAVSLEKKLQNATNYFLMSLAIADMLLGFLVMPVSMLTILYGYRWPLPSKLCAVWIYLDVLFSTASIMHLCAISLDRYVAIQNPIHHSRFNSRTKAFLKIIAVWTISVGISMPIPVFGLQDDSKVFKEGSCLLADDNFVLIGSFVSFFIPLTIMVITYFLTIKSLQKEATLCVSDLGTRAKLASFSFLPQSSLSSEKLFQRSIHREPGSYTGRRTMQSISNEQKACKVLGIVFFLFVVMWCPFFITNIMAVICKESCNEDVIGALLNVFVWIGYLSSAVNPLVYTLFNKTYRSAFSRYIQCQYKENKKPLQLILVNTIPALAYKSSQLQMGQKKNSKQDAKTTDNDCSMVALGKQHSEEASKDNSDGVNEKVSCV
SLC6A6 Y138A: Sodium- and chloride-dependent taurine transporter (SLC6A6, Homo sapiens, UniProt P31641, Y138A)
T1: neomycin riboswitch RNA, 5'-triphosphate, 2',3'-cyclic phosphate; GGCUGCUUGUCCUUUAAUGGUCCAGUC
T2: RNA aptamer; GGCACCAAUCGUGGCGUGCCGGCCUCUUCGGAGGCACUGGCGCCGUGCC
Sequence of UniProt Q64663 (whole entry, unmodified, looked up): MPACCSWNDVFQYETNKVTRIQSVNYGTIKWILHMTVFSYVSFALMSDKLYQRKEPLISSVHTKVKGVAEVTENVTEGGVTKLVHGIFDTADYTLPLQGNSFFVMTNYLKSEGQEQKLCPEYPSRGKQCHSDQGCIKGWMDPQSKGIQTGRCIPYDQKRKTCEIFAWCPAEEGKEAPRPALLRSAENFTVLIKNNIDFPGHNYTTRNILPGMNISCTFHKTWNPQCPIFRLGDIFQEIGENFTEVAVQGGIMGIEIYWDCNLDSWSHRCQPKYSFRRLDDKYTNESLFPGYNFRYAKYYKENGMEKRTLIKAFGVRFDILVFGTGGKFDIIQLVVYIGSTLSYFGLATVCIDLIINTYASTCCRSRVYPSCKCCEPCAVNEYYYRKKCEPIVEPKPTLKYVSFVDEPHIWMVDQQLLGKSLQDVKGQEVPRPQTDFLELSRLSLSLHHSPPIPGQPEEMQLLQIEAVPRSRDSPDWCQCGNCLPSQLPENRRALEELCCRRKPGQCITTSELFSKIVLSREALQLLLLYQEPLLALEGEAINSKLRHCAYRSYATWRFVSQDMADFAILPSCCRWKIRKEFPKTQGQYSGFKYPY
Sequence of UniProt Q08426 (whole entry, looked up): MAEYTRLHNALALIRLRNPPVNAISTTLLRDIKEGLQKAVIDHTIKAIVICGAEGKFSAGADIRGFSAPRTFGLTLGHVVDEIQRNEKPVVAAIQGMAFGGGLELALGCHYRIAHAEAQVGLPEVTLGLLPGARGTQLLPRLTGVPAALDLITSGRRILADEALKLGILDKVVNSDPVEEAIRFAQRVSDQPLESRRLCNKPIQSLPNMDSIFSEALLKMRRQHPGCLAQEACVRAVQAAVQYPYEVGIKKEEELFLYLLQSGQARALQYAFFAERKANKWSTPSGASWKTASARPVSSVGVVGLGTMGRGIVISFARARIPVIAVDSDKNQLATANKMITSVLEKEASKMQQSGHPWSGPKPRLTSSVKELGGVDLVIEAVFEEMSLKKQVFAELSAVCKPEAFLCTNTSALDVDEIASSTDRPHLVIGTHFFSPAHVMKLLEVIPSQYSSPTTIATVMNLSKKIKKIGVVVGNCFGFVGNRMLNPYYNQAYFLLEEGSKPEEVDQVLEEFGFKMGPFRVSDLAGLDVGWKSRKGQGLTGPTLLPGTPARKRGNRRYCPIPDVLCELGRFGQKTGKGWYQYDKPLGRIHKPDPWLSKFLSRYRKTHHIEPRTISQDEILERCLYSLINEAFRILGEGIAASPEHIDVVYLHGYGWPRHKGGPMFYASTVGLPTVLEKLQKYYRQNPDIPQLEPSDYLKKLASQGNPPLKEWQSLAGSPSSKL
Sequence of UniProt Q16774 (whole entry, unmodified, looked up): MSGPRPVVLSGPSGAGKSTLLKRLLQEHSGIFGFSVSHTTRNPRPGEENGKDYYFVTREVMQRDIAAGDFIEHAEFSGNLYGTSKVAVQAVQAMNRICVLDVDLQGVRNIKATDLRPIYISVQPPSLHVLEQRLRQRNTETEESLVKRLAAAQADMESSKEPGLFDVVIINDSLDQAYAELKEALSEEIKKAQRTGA
Sequence of UniProt O76090 (whole entry, unmodified, looked up): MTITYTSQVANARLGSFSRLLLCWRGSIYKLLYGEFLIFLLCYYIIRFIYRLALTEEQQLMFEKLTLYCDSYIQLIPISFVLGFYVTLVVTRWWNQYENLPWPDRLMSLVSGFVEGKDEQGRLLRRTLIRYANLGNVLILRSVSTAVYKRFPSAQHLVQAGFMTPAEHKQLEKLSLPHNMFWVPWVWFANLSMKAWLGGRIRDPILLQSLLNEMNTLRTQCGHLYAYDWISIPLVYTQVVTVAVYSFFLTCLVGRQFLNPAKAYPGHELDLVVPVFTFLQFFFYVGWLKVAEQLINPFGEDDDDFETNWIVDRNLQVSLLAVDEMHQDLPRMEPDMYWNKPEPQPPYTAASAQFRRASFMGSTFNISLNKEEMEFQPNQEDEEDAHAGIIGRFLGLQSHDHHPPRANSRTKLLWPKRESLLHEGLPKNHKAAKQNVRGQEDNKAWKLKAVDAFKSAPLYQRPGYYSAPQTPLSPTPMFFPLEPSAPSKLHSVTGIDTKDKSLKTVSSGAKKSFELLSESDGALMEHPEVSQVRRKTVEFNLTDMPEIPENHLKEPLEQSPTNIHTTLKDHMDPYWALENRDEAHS
Sequence of UniProt P51575 (whole entry, looked up): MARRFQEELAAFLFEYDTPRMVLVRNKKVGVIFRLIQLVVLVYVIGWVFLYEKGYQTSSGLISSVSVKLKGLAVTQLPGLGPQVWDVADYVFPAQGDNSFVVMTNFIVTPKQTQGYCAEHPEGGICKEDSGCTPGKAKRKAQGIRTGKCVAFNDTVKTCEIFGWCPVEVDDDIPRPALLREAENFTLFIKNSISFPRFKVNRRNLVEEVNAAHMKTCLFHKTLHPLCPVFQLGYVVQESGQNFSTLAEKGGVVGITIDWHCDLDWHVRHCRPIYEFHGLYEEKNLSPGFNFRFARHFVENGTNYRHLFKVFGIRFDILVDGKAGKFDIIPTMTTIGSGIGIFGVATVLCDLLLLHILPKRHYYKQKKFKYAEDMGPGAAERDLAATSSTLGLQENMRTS
Sequence of UniProt P11388 (whole entry, looked up): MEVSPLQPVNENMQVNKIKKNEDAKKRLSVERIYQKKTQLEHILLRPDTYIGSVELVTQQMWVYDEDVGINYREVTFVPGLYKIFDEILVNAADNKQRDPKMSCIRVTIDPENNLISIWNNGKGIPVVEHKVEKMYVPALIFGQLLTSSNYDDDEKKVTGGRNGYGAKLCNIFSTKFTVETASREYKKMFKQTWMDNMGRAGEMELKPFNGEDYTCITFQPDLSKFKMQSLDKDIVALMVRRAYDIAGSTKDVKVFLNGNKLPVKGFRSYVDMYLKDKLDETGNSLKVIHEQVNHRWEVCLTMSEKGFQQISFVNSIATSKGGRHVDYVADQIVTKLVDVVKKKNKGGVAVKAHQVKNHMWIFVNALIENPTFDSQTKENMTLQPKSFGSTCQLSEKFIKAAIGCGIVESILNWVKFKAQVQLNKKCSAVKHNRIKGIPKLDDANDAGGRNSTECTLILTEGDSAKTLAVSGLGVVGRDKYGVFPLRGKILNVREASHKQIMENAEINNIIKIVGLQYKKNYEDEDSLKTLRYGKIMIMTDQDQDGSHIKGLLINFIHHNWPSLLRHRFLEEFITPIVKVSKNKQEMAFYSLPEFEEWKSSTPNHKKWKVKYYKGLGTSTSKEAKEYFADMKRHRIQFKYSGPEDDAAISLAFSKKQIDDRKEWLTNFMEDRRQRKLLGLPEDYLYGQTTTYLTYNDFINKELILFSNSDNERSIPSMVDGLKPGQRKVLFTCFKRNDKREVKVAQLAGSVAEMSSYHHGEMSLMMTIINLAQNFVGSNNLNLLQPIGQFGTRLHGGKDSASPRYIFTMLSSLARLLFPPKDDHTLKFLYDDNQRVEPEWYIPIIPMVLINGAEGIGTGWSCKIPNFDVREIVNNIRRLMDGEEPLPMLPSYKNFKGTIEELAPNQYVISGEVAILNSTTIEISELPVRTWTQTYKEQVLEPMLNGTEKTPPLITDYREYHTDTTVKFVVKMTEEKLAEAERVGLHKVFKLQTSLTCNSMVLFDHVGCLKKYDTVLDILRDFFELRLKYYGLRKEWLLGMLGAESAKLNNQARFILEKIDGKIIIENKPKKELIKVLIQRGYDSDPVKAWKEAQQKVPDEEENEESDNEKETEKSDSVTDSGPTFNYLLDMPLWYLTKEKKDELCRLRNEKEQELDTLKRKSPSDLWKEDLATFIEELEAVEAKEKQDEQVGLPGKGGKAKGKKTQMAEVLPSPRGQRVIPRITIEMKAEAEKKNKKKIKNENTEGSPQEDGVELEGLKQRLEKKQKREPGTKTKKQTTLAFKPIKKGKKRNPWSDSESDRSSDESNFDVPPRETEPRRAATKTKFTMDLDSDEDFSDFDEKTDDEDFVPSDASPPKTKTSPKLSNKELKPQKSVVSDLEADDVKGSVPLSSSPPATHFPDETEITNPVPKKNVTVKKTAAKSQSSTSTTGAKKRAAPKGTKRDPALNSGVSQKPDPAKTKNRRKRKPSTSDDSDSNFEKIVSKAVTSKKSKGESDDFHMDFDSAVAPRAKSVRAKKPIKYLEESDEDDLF
Sequence of UniProt P00441 (whole entry, unmodified, looked up): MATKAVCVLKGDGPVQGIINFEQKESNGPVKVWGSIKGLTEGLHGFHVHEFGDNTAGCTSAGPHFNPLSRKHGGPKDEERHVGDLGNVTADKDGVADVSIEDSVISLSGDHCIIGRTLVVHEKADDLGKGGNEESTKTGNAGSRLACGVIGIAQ

Structure (SMILES) | target | test | test system | setting | scale | endpoint | result
Nc1ccc2cc3ccc(N)cc3nc2c1 | Chymotrypsinogen A, activated (alpha-chymotrypsin) (Bos taurus, UniProt P00766) | isothermal titration calorimetry |  | concentration not given, pH 7.4, 25 °C |  | entropic contribution to binding | -6.72 ± 1.12 kcal/mol
CC1CCCN(C(=O)c2cc3ncccn3n2)C1 (centres unmarked) | STUB1 | binding, affinity selection mass spectrometry |  |  | relative to: other proteins in batch | fold enrichment | 1.87
COc1cccc(OC[C@@H]2CN(CC(=O)N3CCc4ccccc43)CCO2)c1 | HTR2C (Homo sapiens, UniProt P28335) | radioligand binding |  | concentration not given, added: [3H]mesulergine |  | inhibition | 34%
CCCC[C@H](NC(=O)[C@@H](NC(=O)[C@H](CCCNC(=N)N)NC(=O)CN)[C@@H](C)O)C(=O)N[C@@H](CCC(N)=O)C(=O)N[C@H](C(=O)N[C@@H](C)C(=O)N[C@@H](CCCNC(=N)N)C(=O)N[C@@H](CCCCN)C(=O)N[C@@H](CO)C(=O)N[C@H](C(=O)NCC(=O)NCC(N)=O)[C@@H](C)O)[C@@H](C)O | SETD7 (Homo sapiens, UniProt Q8WTS6) | histone H3 methylation, inhibitor, western blot |  | 100 µM, 30 min, enzyme 500 nM, added: full-length H3, SAM 30 µM | relative to: no inhibitor | H3K4me1 level | 35 ± 7%
O=S(=O)(O)O | GUK1 (Homo sapiens, UniProt Q16774) | enzyme activity, NADH-coupled |  | 1 mM, added: ATP 62.5 µM |  | reaction velocity | 0.0397 µM/s and 0.0591 µM/s and 0.0398 µM/s
O=c1nc(SCc2cc(F)cc(C(F)(F)F)c2)nc(SCc2ccc3sccc3c2)[nH]1 | TOP2A (Homo sapiens, UniProt P11388) | ATPase activity |  | 1.95 µM, added: ATP 0.25 mM |  | ATP hydrolysis rate | 1.42 µM/min and 2.12 µM/min
Cc1n[nH]c2ccc(-c3cc(OC[C@@H](N)Cc4ccccc4)cnc3-c3ccoc3)cc12 | Protein kinase C-like 1 (Candida albicans, UniProt P43057) | kinase binding, competitor, MIB/MS competition, measured: PKC1 | Candida albicans cell lysate | 10 µM | relative to: DMSO | log2 fold change | -0.233
CNS(=O)(=O)Cc1ccc2[nH]cc(CCN(C)C)c2c1 | TDP1 (Homo sapiens, UniProt Q9NUW8) | binding, small molecule microarray |  | added: AF647-labelled TDP1 1 µM | direction not given | Z score | 3.18
Nc1ccc(C(=O)O)cc1 | BEST1, with wild-type BEST1 (Homo sapiens, UniProt O76090, R218H) | ion current, whole-cell patch clamp | HEK293 co-expressing mutant and wild-type | concentration not given, voltage -60 mV |  | current density | -13.6 pA/pF and -7.69 pA/pF and -15.1 pA/pF and -9.08 pA/pF and -2.44 pA/pF and -6 pA/pF and -20.9 pA/pF and -2.62 pA/pF
N#Cc1cnn(C(=O)N2CCN(C(c3ccc(OCc4ccccc4)cc3)c3ccc(OCc4ccccc4)cc3)CC2)c1 | Mgll (Mus musculus, UniProt O35678) | competitive ABPP | mouse brain proteome |  | relative to: Mgll over ABHD6 | selectivity ratio | > 1000 fold
Clc1cccc(OC[C@H]2CN(CCN3CCc4ccccc43)CCO2)c1 | HTR2A | radioligand binding |  | concentration not given, added: [3H]ketanserin |  | inhibition | 60.8%
Nc1ncnc2c1ncn2[C@@H]1O[C@H](COP(=O)(O)CP(=O)(O)OP(=O)(O)O)[C@@H](O)[C@H]1O | P2X purinoceptor 1 (P2RX1, Homo sapiens, UniProt P51575) | calcium influx |  | 10 µM | relative to: ionomycin response | calcium influx | 77% and 81.8% and 89.9%
O=C(COP(=O)(O)O)[C@@H](O)[C@H](O)[C@H](O)COP(=O)(O)O | Peroxisomal bifunctional enzyme (EHHADH, Homo sapiens, UniProt Q08426) | thermal proteome profiling, measured: EHHADH | HepG2 cell lysate | concentration not given, 57 over 37 °C | relative to: compound over control | thermal stability ratio | 0.5 and 0.7 and 0.571
O=C(N/N=C/c1cc(Br)ccc1O)c1cc2ccccc2cc1O | ESR2 (Homo sapiens, UniProt Q92731) | PGC-1α coactivator displacement, inhibitor, TR-FRET |  | up to 100 µM, added: estradiol |  | activity | inactive
CC(=O)N[C@H](C(=O)N1C[C@H](O)C[C@H]1C(=O)NCc1ccc(-c2scnc2C)cc1)C(C)(C)SCCCCCCNC(=O)C[C@@H]1N=C(c2ccc(Cl)cc2)c2c(sc(C)c2C)-n2c(C)nnc21 | BRD4/VHL, BD2; with elongins B/C (Homo sapiens, UniProt O60885+P40337) | ITC |  | 25 °C, ternary complex, added: BRD4 BD2 |  | ΔH | -6.9 ± 0.6 kcal/mol
NC(=O)CCC(=O)O | Uncharacterized protein (Pelagibacter ubique, UniProt Q4FKX4) | differential scanning fluorimetry | Candidatus Pelagibacter ubique | in-house screen |  | thermal shift | 3.52 °C
CN(C)C(=O)C(CCN1CCC(O)(c2ccc(Cl)cc2)CC1)(c1ccccc1)c1ccccc1 | Calcium-activated potassium channel subunit alpha-1, with LRRC26 γ1 subunit (KCNMA1, Homo sapiens, UniProt Q12791) | BK channel conductance, inside-out patch clamp |  | BKα/γ1, Vm 60 mV, nominally Ca2+-free |  | Hill coefficient | 0.716 ± 0.08
CCCCC[S+]([O-])c1n[nH]c(N)n1 (centres unmarked) | WD repeat-containing protein 55 (WDR55, Homo sapiens, UniProt Q9H6Y2) | binding, affinity selection mass spectrometry |  |  | relative to: other proteins in batch | fold enrichment | 1.35
CCN1CCC[C@H]1CNC(=O)c1c(O)c(Cl)cc(Cl)c1OC | G-protein coupled receptor 151 (GPR151, Homo sapiens, UniProt Q8TDV0) | β-arrestin recruitment, TANGO luminescence, measured: GPR151 |  | concentration not given | relative to: basal luminescence | log2 fold change | 0.52

Structure (SMILES) | target | test | test system | setting | scale | endpoint | result
O=C1c2ccccc2CCN1CCCCN1CCN(c2ccccn2)CC1 | HTR2A | radioligand binding |  | concentration not given, added: [3H]ketanserin |  | inhibition | 95.2%
Nc1ccn([C@H]2C[C@H](O)[C@@H](COP(=O)(O)OP(=O)(O)OP(=O)(O)O)O2)c(=O)n1 | Gag-Pol polyprotein, reverse transcriptase (gag-pol, Human immunodeficiency virus type 1 group M subtype B, UniProt P04585) | nucleotide incorporation, substrate | HIV-1 | added: DNA template |  | Vmax | 0.47 product fraction
CC[C@H](C)[C@@H]1NC(=O)[C@H](C)NC(=O)[C@H]([C@@H](C)CC)NC(=O)[C@H](CCC(N)=O)NC(=O)[C@H](C)NC(=O)[C@H](CCCNC(=N)N)NC(=O)[C@H](C(C)C)NC(=O)[C@H](CC(C)C)NC(=O)[C@H](CCC(=O)O)NC(=O)[C@H](CCCNC(=N)N)NC(=O)CNC(=O)[C@@H](NC(=O)[C@H](CC(C)C)NC(=O)[C@H](CCCCN)NC(=O)[C@@H](NC(=O)[C@@H](NC(=O)[C@H](CCC(=O)O)NC(=O)[C@H](CCC(=O)O)NC(=O)[C@H](CCSC)NC(=O)[C@H](Cc2c[nH]c3ccccc23)NC(=O)[C@H](CO)NC(=O)[C@@H](N)CC(=O)O)C(C)C)[C@@H](C)CC)CSSC[C@@H]2NC(=O)[C@@H](NC(=O)[C@H](CCCCN)NC(=O)[C@H](CC(N)=O)NC(=O)[C@H](C)NC(=O)[C@H](CC(C)C)NC(=O)[C@H](C)NC(=O)[C@H](CO)NC(=O)[C@H](Cc3ccc(O)cc3)NC(=O)[C@H](CC(C)C)NC(=O)[C@H](CCC(N)=O)NC(=O)c3ccc(-c4c5ccc(=[N+](C)C)cc-5oc5cc(N(C)C)ccc45)c(C(=O)[O-])c3)CSSC[C@H](NC(=O)CNC(=O)[C@H](C(C)C)NC(=O)[C@H](Cc3c[nH]cn3)NC2=O)C(=O)N[C@@H]([C@@H](C)O)C(=O)N[C@@H](CCCCN)C(=O)N[C@@H](CCCNC(=N)N)C(=O)N[C@@H](CO)C(=O)N[C@@H](CC(C)C)C(=O)N[C@@H](C)C(=O)N[C@@H](CCCNC(=N)N)C(=O)N[C@@H](Cc2ccccc2)C(=O)N[C@H](C(=O)O)CSSC[C@@H](C(=O)NCC(=O)N[C@@H](CCSC)C(=O)N[C@@H](CO)C(=O)N[C@H](C(=O)N[C@@H](Cc2c[nH]c3ccccc23)C(=O)N[C@@H](CO)C(=O)O)[C@@H](C)O)NC1=O | Relaxin receptor 1 (RXFP1, Homo sapiens, UniProt Q9HBX9, F76A/Y80A) | NanoBRET dissociation |  | infinite dilution, added: 1 µM relaxin |  | koff fast phase | 0.00795 s⁻¹
Nc1nc2c(ncn2[C@@H]2O[C@H](COP(=O)(O)O)[C@@H](O)[C@H]2O)c(=O)[nH]1 | GUK1 (Homo sapiens, UniProt Q16774, Y53A) | enzyme activity, NADH-coupled |  | 31.25 µM |  | reaction rate | -1.08 s⁻¹ and -0.456 s⁻¹ and -0.619 s⁻¹
COc1cc(Nc2ncc3c(n2)-c2ccc(Cl)cc2C(c2c(F)cccc2OC)=NC3)ccc1C(=O)O | SRMS | kinase activity |  | 1 µM |  | remaining activity | 98%
CCCCC[C@H](O)/C=C/[C@H]1C(=O)C[C@H](O)[C@@H]1C/C=C\CCCC(=O)O | PTGDR (Homo sapiens, UniProt Q13258, D262A) | agonist |  | 10 µM |  | activation | 91.6%
COc1ccc(-c2cc3ccc(O)cc3oc2=O)cc1 | MIF (Homo sapiens, UniProt P14174) | inhibitor, ELISA |  | up to 50 µM |  | binding inhibition | no inhibition
NCCS(=O)(=O)O | SLC6A6 Y138A | binding, microscale thermophoresis |  | 62.5 µM, room temperature, added: 50 nM labelled protein | higher = more binding | normalised MST signal | 0.0115
Cc1ccc(OC[C@@H]2CN(CCN3CCc4ccccc43)CCO2)cn1 | HTR7 (Homo sapiens, UniProt P34969) | radioligand binding |  | concentration not given, added: [3H]LSD |  | inhibition | 23.5%
C[C@]12C[C@H](O)[C@H]3[C@@H](CCC4=CC(=O)CC[C@@]43C)[C@@H]1CC[C@@H]2C(=O)CO | CYP11B2 (Homo sapiens, UniProt P19099, A320V) | substrate |  | 100 µM, 37 °C, phospholipid vesicles |  | NADPH consumption rate, 18-hydroxylation | 2.3 ± 0.1 min⁻¹
NC(=O)C1=CN([C@@H]2O[C@H](COP(=O)(O)OP(=O)(O)OC[C@H]3O[C@@H](n4cnc5c(N)ncnc54)[C@H](OP(=O)(O)O)[C@@H]3O)[C@@H](O)[C@H]2O)C=CC1 | FSP1, ancestral | substrate |  | co-substrate fixed |  | Km | 29.3 ± 6.26 µM
CC(C)(N)C(=O)N[C@H](COCc1ccccc1)C(=O)N1CCC2(CC1)CN(S(C)(=O)=O)c1ccccc12 | GHSR (Homo sapiens, UniProt Q92847) | calcium mobilization | HEK293, stably transfected |  |  | Hill slope | 1
COCCC(=O)N1CCC(Oc2ccccc2)C1 (centres unmarked) | STUB1 | binding, affinity selection mass spectrometry |  |  | relative to: other proteins in batch | log fold enrichment | -0.114
NC[C@H]1O[C@H](O[C@H]2[C@H](O[C@@H]3O[C@H](CO)[C@@H](O)[C@H]3O)[C@@H](O)[C@H](N)C[C@@H]2N)[C@H](N)[C@@H](O)[C@@H]1O | T1, neomycin riboswitch RNA, 5'-triphosphate, 2',3'-cyclic phosphate | NMR |  | pH 6.2, 10 °C |  | binding | binds
Nc1ncnc2c1ncn2[C@@H]1O[C@H](COP(=O)(O)OP(=O)(O)OP(=O)(O)O)[C@@H](O)[C@H]1O | P2X purinoceptor 7 (P2rx7, Rattus norvegicus, UniProt Q64663, Q143A) | ion current, agonist, two-electrode voltage clamp | Xenopus laevis oocytes | 500 µM | relative to: highest concentration response | normalized current | 0.961 and 0.981 and 0.929
Nc1ncnc2c1ncn2[C@@H]1O[C@H](COP(=O)(O)OP(=O)(O)OP(=O)(O)O)[C@@H](O)[C@H]1O | CKMT1A (Homo sapiens, UniProt P12532, E265Q) | substrate, ADP-Glo luminescence |  | pH 8.5, forward reaction, E227Q mutant, added: second substrate in excess |  | Km | 120 ± 60 µM
[O-][S+]1CCCCS1 (centres unmarked) | SOD1 (Homo sapiens, UniProt P00441, G94A) | intact protein LC-MS | SOD1 G93A transgenic mice, whole blood | oral, 150 mg/kg, 72 h, mean of two mice |  | target engagement | 17.2 % cross-linked dimer
NCCCS(=O)(=O)O | SLC6A6 Y138A | binding, microscale thermophoresis |  | 40.3 nM, fitted curve | higher = more binding | fraction bound | 0.000365
CN(CCO)c1ccc(/C=C(\C#N)c2ccc(C#N)cc2)cc1 | T2, RNA aptamer | fluorescence titration, Hill fit |  | apparent |  | Kd | 0.294 µM
